Experimental data of several laboratories.
Each numbered part is a random draw from the data of one study; scales do not carry over between parts. Changes are numbered by the printed parent chain.

Sample 1 — method: aptamer microarray, sandwich; form: DNA with 2'F-ANA; medium: in vitro; concentration: 200 nM; together with: Cy3 exosite-II aptamer, 400 nM; reading: higher = stronger binding; endpoint: mean fluorescence intensity; strand: GGTTGGTGTGGTTGG
Target: Prothrombin, mature alpha-thrombin (F2, Homo sapiens, UniProt P00734)
Notes: whole 15-mer aptamer, many near background
2'F-ANA at 4 6 7 9 11 13: 140 a.u.
2'F-ANA at 1 3 4 8 9 10 11: 61.9 a.u.
2'F-ANA at 1 4 6 9 13: 68.7 a.u.
2'F-ANA at 5 7 9 10 12: 57.4 a.u.
2'F-ANA at 1 2 3 4 5 7 8 9 12 15: 127 a.u.
2'F-ANA at 1 3 7 8 10 13 14: 69.1 a.u.
2'F-ANA at 2 4 5 7 9 11 12 13 14: 44.4 a.u.
2'F-ANA at 2 7 8 10 11 14 15: 77 a.u.
2'F-ANA at 2 5 7 9 10 12 14: 48 a.u.

Sample 2 — method: RNA Bind-n-Seq; form: RNA; medium: in vitro; concentration: 365 nM; relative to: no-protein control; reading: higher = stronger binding; endpoint: RBNS enrichment (R)
Target: RNA binding protein fox-1 homolog 2, RRM domain, GST-SBP tag (RBFOX2, Homo sapiens, UniProt O43251-10, residues 100-194)
Notes: natural RNA segment, single round, ends assumed
Target sequence (chain): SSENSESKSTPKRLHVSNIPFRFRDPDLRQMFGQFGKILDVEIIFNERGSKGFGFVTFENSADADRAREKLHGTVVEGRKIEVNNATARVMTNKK
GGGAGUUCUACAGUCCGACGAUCAUAGAGGCAAGGGGUUACUGUGUGAAUCCCGGCUCCCUUCCACAUGCUGUACACCCUAUCCAUCUGUCAGGAGCUGGGGCAAGGAGCCAGAACCCUCUGCGCCUUGAGAUUGGAAUUCUCGGGUGCCAA: 0.392
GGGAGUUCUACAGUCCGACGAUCUUUAAAAAGGAGAUUAUUCUAAAACAUAAACUUAUUUGCAUAUAUUGGAGGAGCAUCCACUAUCAGUAUUUCUGUGCUUUAUAAACUAUAUUAGAGGGACUGGGUUUAAAUGGAAUUCUCGGGUGCCAA: 0.456
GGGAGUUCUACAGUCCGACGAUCGAGGGCUGAAUUGUUUUGCAGAGGAAGAUGGCAUCUGUGCUUUAAAUUUCUCAUUACUGGGUUAGAAAACAAAGAGGGAUUGCCCUGCACAUUUUCUUUUGUGCUUUUAAUGGAAUUCUCGGGUGCCAA: 0.993
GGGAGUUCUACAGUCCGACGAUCGUGGCCAGGCAGGAUUAAAGGUAUUCUAAAUCCUUACCACGGGGCAUUUUCUGGAUGCAAAGGCACUAGCCCAUUUGAAAAUUAAUAUUCCGUGCCUCUGGGCCAAGAGGUGGAAUUCUCGGGUGCCAA: 0.381
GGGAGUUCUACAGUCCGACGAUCCAGGAAGCGUUCCAGCUAUUUAAUGCUGGCAACUACUGUUUAAUGGUCAGUUAAAUCUGUGAUAAUGGUUGGAAGUGGGUGGGGUUAUGAAAUUGUAGAUGUUUUUAGAAUGGAAUUCUCGGGUGCCAA: 1.17
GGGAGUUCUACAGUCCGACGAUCCUCCUACUUUUGUCCACCACCCCUGCCUCCUGGAUCUUCUCCCACUUUUUUUUUCAGCUUUAGGACCUGGGGAGAUCCUGUGAGUCAAGGCAGACACCCAAUCCUGCCCCUGGAAUUCUCGGGUGCCAA: 1.17
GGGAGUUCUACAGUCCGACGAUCCAAGCAAUCCAGCCUCAUGGGAAGUCCUGGCACAGUUUUUGUAAAGCCCUUGCACAGCUGGAGAAAUGGCAUCAUUAUAAGCUAUGAGUUGAAAUGUUCUGUCAAAUGUGUGGAAUUCUCGGGUGCCAA: 0.458
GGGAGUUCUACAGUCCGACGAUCAUAUAUGUAUAAUAUAUCAAUACUGGAGCCCCGCCUUUCUGUGCCCAGGUCCAGGCCCUGUGUAAGGGCUUGCAGCCUGUCUCUGCUGUCCACCCUGCAGUGCUCACUUUUGGAAUUCUCGGGUGCCAA: 0.261
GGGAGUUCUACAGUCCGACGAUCAGCUAUUAGUAUAUUUAAAAACUGUUCAAAAGCAAAAGAGAAGGAACAGGAAUGAAAGGAAACCUUCCCUUAACUCUUUCUGCUUCCCAUAGCAGGUCUGGUUCCUGCUCUGGAAUUCUCGGGUGCCAA: 0.359
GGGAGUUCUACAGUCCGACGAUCUAGCGACAUCCAGAACACAAGCCCACCAGGGGUCCAGCCCAGGCUACCCACUCCCCUAGGGUCUCCCAGGCUCAGAAGGGGAUGCACGCCCCCUGUGGUCAAGCCUCUGGUGGAAUUCUCGGGUGCCAA: 0.507

Sample 3 — target: CCND2, cyclin fold, Cln2 fusion (human); method: yeast growth competition, sequencing; medium: yeast; notes: weak parent motif; relative to: not given; reading: higher = stronger binding; endpoint: normalised enrichment score
Parent: ANKRD17 docking peptide (human); PSVRRQLFVTVVK
PSARRQLFVTVVK [V3A]: 0.525
PSVRAQLFVTVVK [R5A]: 0.944
PSVRKQLLVTVVK [R5K F8L]: 0.442
PSVRRQAFVTVVK [L7A]: 0.521
PSVRRQLFVAVVK [T10A]: 0.938
ASVRRQLFVTVVK [P1A]: -0.125
PAVRRQLFVTVVK [S2A]: 0.303

Other studies, line by line
PhoQ, residues 284 288 289 292 302 303 SCCLKL  fold induction (PhoP, residues 12 14 15 18 19 AWHSL (Escherichia coli, UniProt P23836); Sort-seq, item: YFP reporter; E. coli; PhoQ-PhoP variant library, together with: 10 µM Mg2+; relative to: high Mg2+ state, higher = stronger signaling): 3.86

Excerpt of the above (sample 2):
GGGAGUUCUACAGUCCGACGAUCAGCUAUUAGUAUAUUUAAAAACUGUUCAAAAGCAAAAGAGAAGGAACAGGAAUGAAAGGAAACCUUCCCUUAACUCUUUCUGCUUCCCAUAGCAGGUCUGGUUCCUGCUCUGGAAUUCUCGGGUGCCAA: 0.359
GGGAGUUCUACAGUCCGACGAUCGAGGGCUGAAUUGUUUUGCAGAGGAAGAUGGCAUCUGUGCUUUAAAUUUCUCAUUACUGGGUUAGAAAACAAAGAGGGAUUGCCCUGCACAUUUUCUUUUGUGCUUUUAAUGGAAUUCUCGGGUGCCAA: 0.993
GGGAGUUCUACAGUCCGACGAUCUUUAAAAAGGAGAUUAUUCUAAAACAUAAACUUAUUUGCAUAUAUUGGAGGAGCAUCCACUAUCAGUAUUUCUGUGCUUUAUAAACUAUAUUAGAGGGACUGGGUUUAAAUGGAAUUCUCGGGUGCCAA: 0.456
